Published values gathered from unrelated publications.
Every numbered part comes from another study and shows a few of its results, in no order.

Study 1 — technique: protein-binding microarray; molecule type: double-stranded DNA, one strand shown; medium: in vitro; tested at: 250 nM; notes: 60-bp whole probe; together with: salmon DNA 0.4 mg/ml; reference: random background probes; direction: higher = stronger binding; all sequences stand within: GCCTAGCAC … GTCTTGATTCGCTTGACGCTGCTG
Target: Interferon regulatory factor 5, full length, phosphomimetic (IRF5, Homo sapiens, UniProt Q13568-2, residues 1-514, K96S/S451D/S453D/S456D/S462D)
Oligonucleotide | log fluorescence [z-score]
TTAAGTATCGACTATCGGTTAGTGCTA | 9.18
GTGTGCATCTATCTTAAATAGTGCTAG | -0.0858
TTAGTTCTCAGACTGGATTAGTGCTAG | 0.0565
TCATATATGCATGTAAAACTGTGCTAG | 0.422
TTAGAGATCGGGTATCGATTAGTGCTA | 3.35

Study 2 — technique: universal PBM; molecule type: double-stranded DNA, one strand shown; medium: in vitro; tested at: 600 nM; direction: higher = stronger binding
Target: Sal-like protein 4, full length isoform A (SALL4, Homo sapiens, UniProt Q9UJQ4, residues 1-1053)
Chain of UniProt Q9UJQ4 (whole entry, looked up): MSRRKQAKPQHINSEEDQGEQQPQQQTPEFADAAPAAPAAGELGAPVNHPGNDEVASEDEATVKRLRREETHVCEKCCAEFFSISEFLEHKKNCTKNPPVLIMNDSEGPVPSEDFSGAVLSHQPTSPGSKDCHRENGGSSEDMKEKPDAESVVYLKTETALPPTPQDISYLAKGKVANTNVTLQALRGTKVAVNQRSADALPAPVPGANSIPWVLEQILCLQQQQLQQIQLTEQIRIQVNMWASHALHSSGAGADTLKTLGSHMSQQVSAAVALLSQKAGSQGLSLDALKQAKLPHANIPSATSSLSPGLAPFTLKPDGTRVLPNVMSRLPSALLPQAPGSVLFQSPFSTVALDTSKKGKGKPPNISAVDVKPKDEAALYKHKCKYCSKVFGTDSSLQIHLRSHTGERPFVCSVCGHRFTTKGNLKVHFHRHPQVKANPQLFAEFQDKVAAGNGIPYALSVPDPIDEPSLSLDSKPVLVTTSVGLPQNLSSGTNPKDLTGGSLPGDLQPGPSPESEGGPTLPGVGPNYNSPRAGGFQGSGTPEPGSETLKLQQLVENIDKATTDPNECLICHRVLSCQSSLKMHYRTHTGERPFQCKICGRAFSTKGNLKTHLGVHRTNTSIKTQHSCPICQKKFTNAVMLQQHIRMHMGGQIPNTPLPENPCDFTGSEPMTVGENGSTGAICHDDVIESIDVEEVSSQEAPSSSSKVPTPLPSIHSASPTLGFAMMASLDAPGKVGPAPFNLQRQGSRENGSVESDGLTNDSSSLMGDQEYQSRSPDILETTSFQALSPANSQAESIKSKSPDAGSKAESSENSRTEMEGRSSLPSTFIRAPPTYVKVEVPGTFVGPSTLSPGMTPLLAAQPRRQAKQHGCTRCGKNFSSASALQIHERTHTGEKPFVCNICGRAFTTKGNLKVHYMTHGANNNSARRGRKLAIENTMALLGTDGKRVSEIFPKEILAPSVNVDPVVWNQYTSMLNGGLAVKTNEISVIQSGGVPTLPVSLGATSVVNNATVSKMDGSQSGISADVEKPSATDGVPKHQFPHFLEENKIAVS
Notes: 8-mer, flanks averaged, mean of replicates
Oligonucleotide | E-score
GACCCGAC | -0.28
GTTAAGTA | 0.211
ACGACATA | 0.104
AAAAAACT | 0.166

Study 3 — technique: protein binding microarray; molecule type: double-stranded DNA, one strand shown; medium: in vitro; tested at: not given; reference: not given; direction: higher = stronger binding
Target: Histone acetyltransferase KAT6A, winged helix 1, GST fusion (KAT6A, Homo sapiens, UniProt Q92794, residues 1-85)
Notes: 8-mer, flanks averaged, mean of 2 arrays, mostly near background
Residues (chain): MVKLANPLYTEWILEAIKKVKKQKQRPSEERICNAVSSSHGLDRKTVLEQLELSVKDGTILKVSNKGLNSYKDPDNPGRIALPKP
Oligonucleotide | E-score
AGCGCGCG | 0.468
CTCCTCAA | -0.0372
AATGGAGC | -0.172
GTTGGTGA | -0.0235
AGCCAAAT | -0.186

Single results of other studies
Molecule | target | assay | test system | conditions | how to read | measurement | value
PhoQ, residues 284 288 289 292 302 303 NLAAMI | PhoP, residues 12 14 15 18 19 LFHKL (Escherichia coli, UniProt P23836) | Sort-seq, measured: YFP reporter | E. coli | PhoQ-PhoP variant library, together with: 10 µM Mg2+ | reference: high Mg2+ state, higher = stronger signaling | fold induction | 0.826

Excerpt of the above (study 1):
Oligonucleotide | log fluorescence [z-score]
TTAAGTATCGACTATCGGTTAGTGCTA | 9.18
GTGTGCATCTATCTTAAATAGTGCTAG | -0.0858
